Published values pooled from the literature.
Parts stem from different laboratories: compare values within a part only. Substitutions count along the parent as printed.

Study 1
Target: CCNB3, cyclin fold, Cln2 fusion (human)
Technique: yeast growth competition, sequencing
Sample: yeast
Notes: strong parent motif
Baseline: not given
Reading: higher = stronger binding
Endpoint: normalised enrichment score
Starting sequence: viral docking peptide; KGVKRKLFAEDSS
S12A: 2.62
K4D: -0.0992
V3I: 2.15
F8T: -0.179
G2N: 3.26
R5Q: 0.517
A9M: 3.2
D11I: 1.96
G2F: 2.16
G2M: 2.29
V3Y: 0.326
K6R: 3.14
F8M: 0.187
K6A: 0.982
R5P: 0.132
K6L: 1
K4H: 0.418
K4C: 2.8
A9K: 2.35
E10T: 2.14
K6E: 0.26
L7H: -0.137
L7M: 0.701
R5K F8L: 0.241

Study 2
Target: Sox, HMG box (Pigoraptor chileana)
Technique: Spec-seq
Molecule type: double-stranded DNA, one strand shown
Sample: in vitro
Tested at: not given
Notes: whole probe, mean of replicates
Baseline: not given
Reading: lower = stronger binding
Endpoint: relative binding energy
All sequences stand within: GAGTCGTCTCGTCAGCAC … CCGTAGAGCACTCAGGTC
Residues (chain): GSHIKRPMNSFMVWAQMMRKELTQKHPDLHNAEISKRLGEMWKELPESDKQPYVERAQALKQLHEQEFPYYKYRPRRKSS
CATGTAT: 0.376 ln ratio
CATTATG: -1.79 ln ratio
GCGCGTT: 1.4 ln ratio
CATTACG: 0.137 ln ratio
CATTTCA: 0.456 ln ratio
CATTAGG: 0.0673 ln ratio
CACTGTT: -1.69 ln ratio
AGATGTT: -0.297 ln ratio

Study 3
Target: tungstate, free oxyanion
Technique: microfluidic competitive inhibition
Sample: in vitro, cell-free expressed
Tested at: not given
Notes: derived from inhibition constants, unchanged parent 2230 nM
Reading: lower = stronger binding
Endpoint: oxyanion analog dissociation constant
Starting sequence: PafA, mature enzyme, eGFP fusion (Elizabethkingia meningoseptica, UniProt Q9KJX5); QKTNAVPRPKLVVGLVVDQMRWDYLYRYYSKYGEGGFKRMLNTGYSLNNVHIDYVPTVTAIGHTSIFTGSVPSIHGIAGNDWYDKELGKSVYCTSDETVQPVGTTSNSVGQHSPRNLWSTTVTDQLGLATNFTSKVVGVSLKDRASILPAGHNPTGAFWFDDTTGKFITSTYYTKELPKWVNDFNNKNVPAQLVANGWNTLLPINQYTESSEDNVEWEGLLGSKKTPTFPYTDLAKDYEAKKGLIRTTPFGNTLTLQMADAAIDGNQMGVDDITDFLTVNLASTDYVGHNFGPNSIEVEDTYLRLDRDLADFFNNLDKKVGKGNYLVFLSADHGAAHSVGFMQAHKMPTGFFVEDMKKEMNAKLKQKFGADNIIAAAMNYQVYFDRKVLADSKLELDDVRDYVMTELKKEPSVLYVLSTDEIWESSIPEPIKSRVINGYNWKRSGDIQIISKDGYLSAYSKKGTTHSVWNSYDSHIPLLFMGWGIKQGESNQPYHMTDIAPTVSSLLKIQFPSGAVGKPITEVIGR
L244G: 1.6 µM
G323V: 2.17 µM
S451G: 2.2 µM
S170G: 967 nM
I427G: 1.15 µM
S223G: 1.96 µM
S108V: 3.51 µM
D23V: 1.35 µM
Q206V: 2.45 µM
M347G: 899 nM
T521V: 3.07 µM
Q381V: 2.09 µM
L15V: 2.67 µM
F312V: 1.95 µM
R27V: 2.16 µM
E97V: 2.31 µM

Study 4
Target: UDP-N-acetylglucosamine--peptide N-acetylglucosaminyltransferase 110 kDa subunit (OGT, Homo sapiens, UniProt O15294)
Effect on: binding
Technique: phage display NGS
Molecule type: peptide
Tested at: concentration not given
Notes: normalized abundance
Baseline: input library
Endpoint: enrichment fold change
Residues (O15294 1-1046): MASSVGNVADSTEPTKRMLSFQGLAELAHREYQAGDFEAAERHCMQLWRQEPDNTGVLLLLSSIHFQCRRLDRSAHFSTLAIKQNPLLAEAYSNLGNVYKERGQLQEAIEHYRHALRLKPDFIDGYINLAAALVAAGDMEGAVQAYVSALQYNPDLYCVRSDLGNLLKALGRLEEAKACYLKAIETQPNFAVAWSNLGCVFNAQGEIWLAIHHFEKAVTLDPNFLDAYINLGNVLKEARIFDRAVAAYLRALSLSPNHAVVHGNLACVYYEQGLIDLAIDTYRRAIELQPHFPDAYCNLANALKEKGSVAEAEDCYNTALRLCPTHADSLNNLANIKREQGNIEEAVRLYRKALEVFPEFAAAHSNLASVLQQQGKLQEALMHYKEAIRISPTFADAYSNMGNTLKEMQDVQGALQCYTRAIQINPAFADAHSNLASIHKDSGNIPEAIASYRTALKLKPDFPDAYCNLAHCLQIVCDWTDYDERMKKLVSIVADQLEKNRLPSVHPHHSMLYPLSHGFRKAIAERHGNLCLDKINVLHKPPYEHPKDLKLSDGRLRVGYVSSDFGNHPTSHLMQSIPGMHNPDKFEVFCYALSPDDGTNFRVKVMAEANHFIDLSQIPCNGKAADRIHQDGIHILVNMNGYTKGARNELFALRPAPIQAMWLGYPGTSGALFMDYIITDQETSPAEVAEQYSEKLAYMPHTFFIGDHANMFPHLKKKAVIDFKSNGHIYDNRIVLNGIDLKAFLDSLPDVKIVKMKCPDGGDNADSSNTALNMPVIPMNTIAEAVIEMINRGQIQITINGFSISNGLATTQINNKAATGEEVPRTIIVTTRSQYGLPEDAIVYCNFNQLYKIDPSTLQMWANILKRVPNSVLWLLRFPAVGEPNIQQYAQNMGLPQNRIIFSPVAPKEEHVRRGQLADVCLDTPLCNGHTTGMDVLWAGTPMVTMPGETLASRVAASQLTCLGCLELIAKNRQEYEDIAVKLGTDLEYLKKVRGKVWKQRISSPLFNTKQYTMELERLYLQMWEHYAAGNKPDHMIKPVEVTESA
HSWHYYHIEHTAAHE: 6.21
QIQTMLHQHSVHHTH: 5.83
HSWQHHHIMYEVGEG: 10

Repeated from above (study 1):
K4D: -0.0992
A9K: 2.35
K4C: 2.8
K6L: 1
V3Y: 0.326
L7M: 0.701
G2M: 2.29
